# Results collected from several papers.
# Protocols differ between the studies behind these lines. ± gives the spread as reported.
# Mapk1: Mitogen-activated protein kinase 1 (Mapk1, Rattus norvegicus, UniProt P63086)
# UniProt P63086, sequence (whole entry, looked up): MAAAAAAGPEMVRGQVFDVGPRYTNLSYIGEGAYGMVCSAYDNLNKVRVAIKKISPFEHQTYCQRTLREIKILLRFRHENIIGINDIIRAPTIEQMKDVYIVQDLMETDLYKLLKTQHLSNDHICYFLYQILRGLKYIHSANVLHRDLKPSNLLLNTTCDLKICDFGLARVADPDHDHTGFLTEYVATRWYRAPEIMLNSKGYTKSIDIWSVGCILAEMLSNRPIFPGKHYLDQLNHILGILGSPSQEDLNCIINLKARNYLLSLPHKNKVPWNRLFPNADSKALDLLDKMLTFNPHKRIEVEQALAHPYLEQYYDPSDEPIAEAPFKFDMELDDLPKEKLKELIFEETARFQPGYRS
# UniProt P00915, sequence (whole entry, looked up): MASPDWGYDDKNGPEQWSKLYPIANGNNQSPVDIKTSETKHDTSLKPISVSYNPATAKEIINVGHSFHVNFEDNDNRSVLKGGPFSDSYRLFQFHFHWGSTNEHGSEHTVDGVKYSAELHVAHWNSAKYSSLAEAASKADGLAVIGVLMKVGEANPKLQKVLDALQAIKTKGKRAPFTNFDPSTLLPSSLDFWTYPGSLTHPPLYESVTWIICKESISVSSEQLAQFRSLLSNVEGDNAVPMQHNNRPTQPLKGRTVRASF
# UniProt P35462, sequence (whole entry, looked up): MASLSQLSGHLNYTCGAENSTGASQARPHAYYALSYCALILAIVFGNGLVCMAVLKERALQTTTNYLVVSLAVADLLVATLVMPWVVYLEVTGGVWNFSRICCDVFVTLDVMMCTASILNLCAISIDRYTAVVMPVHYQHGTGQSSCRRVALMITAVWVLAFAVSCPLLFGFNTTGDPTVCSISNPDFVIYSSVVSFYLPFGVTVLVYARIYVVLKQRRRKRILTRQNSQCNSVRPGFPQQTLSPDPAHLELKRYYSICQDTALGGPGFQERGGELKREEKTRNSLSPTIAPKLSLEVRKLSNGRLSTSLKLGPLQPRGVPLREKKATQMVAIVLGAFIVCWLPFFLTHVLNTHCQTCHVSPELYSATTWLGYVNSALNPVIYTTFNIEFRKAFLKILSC
# UniProt Q14524, sequence (whole entry, looked up): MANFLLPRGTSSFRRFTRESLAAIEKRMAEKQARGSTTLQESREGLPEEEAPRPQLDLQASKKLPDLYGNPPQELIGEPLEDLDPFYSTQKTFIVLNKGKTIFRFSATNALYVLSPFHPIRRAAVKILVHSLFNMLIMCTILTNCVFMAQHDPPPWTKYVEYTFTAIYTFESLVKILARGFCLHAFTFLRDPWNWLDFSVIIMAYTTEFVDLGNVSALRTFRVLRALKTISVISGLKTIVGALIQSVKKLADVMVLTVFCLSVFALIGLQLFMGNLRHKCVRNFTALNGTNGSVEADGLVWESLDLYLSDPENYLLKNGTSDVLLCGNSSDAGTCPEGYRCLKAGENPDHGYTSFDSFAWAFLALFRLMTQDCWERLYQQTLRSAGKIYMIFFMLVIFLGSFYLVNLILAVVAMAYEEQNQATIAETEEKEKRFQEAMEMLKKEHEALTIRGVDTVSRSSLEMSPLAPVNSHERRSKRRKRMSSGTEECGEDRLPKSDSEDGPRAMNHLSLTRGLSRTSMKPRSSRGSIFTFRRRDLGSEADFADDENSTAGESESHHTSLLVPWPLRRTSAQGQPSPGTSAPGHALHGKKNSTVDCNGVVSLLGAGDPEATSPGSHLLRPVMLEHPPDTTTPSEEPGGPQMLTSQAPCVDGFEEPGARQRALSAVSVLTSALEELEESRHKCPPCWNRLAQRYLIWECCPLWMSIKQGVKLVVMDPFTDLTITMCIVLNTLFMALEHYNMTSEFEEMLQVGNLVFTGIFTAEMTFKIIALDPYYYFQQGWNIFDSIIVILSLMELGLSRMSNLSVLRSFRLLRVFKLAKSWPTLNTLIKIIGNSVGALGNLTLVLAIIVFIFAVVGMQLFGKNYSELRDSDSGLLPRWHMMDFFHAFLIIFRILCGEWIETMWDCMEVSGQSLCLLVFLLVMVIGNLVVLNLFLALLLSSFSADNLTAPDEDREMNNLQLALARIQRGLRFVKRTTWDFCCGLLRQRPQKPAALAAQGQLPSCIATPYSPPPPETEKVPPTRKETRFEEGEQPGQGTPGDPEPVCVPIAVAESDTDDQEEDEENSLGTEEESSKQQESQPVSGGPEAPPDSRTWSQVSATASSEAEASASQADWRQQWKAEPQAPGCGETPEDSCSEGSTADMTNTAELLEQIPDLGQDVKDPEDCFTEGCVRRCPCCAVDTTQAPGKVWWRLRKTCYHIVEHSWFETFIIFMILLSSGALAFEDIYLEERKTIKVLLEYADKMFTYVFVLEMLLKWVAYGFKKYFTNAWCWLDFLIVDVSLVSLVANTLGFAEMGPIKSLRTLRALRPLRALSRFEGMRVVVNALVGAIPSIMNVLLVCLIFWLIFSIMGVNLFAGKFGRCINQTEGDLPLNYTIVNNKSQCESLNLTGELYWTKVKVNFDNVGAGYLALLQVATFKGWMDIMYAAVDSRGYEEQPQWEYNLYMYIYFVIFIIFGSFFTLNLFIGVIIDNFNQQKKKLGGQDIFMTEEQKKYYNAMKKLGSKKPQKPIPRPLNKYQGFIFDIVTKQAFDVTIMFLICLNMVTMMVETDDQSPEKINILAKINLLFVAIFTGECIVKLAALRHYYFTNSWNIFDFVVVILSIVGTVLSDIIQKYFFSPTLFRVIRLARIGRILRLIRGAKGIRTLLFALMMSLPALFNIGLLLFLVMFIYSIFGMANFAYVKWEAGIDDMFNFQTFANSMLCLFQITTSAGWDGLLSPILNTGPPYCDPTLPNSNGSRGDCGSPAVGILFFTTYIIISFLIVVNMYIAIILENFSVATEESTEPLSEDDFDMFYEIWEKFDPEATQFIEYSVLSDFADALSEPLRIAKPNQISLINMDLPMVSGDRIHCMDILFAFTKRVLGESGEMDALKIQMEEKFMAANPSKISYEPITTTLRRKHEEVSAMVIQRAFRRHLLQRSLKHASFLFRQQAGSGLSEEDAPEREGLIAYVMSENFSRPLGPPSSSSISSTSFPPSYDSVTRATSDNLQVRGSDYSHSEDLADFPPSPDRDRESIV
# UniProt Q9GZQ4, sequence (whole entry, looked up): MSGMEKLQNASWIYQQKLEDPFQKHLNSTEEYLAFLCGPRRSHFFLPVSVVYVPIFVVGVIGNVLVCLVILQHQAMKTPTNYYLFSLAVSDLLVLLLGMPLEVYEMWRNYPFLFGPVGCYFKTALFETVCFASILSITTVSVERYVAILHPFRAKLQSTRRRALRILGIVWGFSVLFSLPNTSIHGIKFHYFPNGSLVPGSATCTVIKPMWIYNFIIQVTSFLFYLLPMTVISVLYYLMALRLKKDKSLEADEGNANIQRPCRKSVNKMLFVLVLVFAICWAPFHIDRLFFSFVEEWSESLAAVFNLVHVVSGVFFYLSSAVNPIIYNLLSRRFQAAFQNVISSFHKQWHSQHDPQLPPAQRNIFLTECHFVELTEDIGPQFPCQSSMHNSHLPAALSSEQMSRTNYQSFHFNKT
# UniProt P10275, sequence (whole entry, looked up): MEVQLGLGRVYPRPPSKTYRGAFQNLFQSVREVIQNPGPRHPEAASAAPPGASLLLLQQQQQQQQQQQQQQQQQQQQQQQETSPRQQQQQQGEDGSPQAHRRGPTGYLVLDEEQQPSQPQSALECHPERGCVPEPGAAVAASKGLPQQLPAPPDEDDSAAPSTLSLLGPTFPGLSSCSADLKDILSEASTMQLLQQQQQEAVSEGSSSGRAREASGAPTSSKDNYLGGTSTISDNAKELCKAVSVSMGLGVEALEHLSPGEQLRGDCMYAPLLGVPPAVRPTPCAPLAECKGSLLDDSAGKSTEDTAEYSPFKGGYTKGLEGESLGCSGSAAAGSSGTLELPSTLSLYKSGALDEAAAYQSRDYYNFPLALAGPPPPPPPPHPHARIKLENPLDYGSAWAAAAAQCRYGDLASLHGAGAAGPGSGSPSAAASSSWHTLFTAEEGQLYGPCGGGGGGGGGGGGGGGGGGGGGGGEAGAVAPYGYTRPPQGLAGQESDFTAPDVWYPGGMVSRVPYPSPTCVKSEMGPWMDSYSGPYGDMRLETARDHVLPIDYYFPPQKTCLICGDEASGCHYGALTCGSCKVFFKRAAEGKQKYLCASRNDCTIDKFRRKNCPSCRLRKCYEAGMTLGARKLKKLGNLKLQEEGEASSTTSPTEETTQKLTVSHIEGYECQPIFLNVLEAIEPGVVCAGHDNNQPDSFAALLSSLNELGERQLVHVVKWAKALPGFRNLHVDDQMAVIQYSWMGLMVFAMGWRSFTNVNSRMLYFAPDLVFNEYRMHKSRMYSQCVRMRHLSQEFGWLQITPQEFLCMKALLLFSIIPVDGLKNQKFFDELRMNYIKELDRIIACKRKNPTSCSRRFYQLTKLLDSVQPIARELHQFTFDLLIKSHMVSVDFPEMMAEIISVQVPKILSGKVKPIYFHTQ
# UniProt P06276, sequence (whole entry, looked up): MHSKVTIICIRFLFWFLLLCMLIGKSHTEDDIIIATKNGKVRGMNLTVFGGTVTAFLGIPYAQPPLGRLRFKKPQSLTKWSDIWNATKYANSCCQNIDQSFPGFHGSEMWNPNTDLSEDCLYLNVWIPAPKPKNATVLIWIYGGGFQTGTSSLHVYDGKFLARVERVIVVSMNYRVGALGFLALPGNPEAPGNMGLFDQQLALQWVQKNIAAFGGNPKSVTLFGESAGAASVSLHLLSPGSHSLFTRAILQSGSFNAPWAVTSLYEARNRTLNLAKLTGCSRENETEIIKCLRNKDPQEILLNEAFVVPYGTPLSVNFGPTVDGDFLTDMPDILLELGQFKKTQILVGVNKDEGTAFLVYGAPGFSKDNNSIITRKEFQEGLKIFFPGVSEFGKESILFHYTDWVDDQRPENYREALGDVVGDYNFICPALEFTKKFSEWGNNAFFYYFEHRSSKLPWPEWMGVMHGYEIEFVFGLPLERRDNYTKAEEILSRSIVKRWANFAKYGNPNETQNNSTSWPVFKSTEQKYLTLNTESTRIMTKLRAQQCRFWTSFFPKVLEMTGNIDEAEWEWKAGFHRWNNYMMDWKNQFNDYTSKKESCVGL
Structure (SMILES),target,test,test system,conditions,IC50 [µM]
CC[C@H](C)[C@H](NC(=O)[C@H](CCCCN)NC(=O)[C@H](CC(C)C)NC(=O)[C@@H]1CCCN1C(=O)[C@H](CCCNC(=N)N)NC(=O)[C@@H]1CCCN1C(=O)[C@H](CCCCN)NC(=O)[C@@H](NC(=O)[C@H](CCCCN)NC(=O)[C@H](CC(N)=O)NC(=O)[C@H](CCCCN)NC(=O)[C@@H](NC(=O)[C@H](C)NC(=O)[C@@H](N)Cc1ccc(O)cc1)[C@@H](C)O)C(C)C)C(=O)N[C@H](C(=O)N[C@@H](CCCNC(=N)N)C(=O)O)[C@@H](C)CC,Mapk1,"enzyme activity, inhibitor, fluorescence",,pH 7.4,7.75
Cc1[nH]c(C)c(S(=O)(=O)Nc2ccccc2)c1C(=O)N1CCCC1,"D(3) dopamine receptor (DRD3, Homo sapiens, UniProt P35462)","Go activation, antagonist, BRET",,added: dopamine,> 100
CSCC[C@H](N)C(=O)N[C@@H](CC(=O)O)C(=O)N[C@@H](CC(C)C)C(=O)N1CCC[C@H]1C(=O)N[C@@H](Cc1ccccc1)C(=O)N[C@@H](C)C(=O)N[C@@H](Cc1ccccc1)C(N)=O,"Transcriptional regulator PlcR (Bacillus thuringiensis, UniProt A0ACM8Q0N2)","reporter gene, inhibitor, lacZ reporter",407 Cry−,,0.485 ± 0.037
COCCCC1CCCCN1C(=O)Oc1ccc([N+](=O)[O-])cc1 (stereo not drawn),"Cholinesterase (BCHE, Homo sapiens, UniProt P06276)","enzyme activity, inhibitor, Ellman",,,> 100
CCCCCCCCCCCCCCCCCC(=O)NC[C@H]1CC[C@H](C(=O)N[C@@H](CCC(=O)NCCCOCCOCCOCCCNC(=O)COCC(=O)N[C@@H](Cc2ccc(O)cc2)C(=O)NC(C)(Cc2ccccc2)C(=O)N[C@@H](CC(C)C)C(=O)N[C@@H](CCCC)C(=O)N[C@@H](CCCNC(=N)N)C(=O)N2CCC[C@H]2C(=O)N[C@@H](CCCNC(=N)NC)C(=O)N[C@@H](CC(N)=O)C(N)=O)C(=O)O)CC1 (stereo partly drawn),"Neuromedin-U receptor 2 (NMUR2, Homo sapiens, UniProt Q9GZQ4)","ligand displacement, radioligand",,,0.000891
C[C@@]12CC[C@@H]3[C@H](CC[C@@H]4C[C@@H](O)CC[C@]43C)[C@H]1CC(=O)C2,"Androgen receptor (AR, Homo sapiens, UniProt P10275)","nuclear translocation, antagonist",,,4.27
O=C(O)CCn1c(=O)oc2cc(Cl)c(Cl)cc21,"Sodium channel protein type 5 subunit alpha (SCN5A, Homo sapiens, UniProt Q14524)","ion current, inhibitor",,,> 100
CSCC[C@H](NC(=O)[C@H](CC(C)C)NC(=O)[C@H](C)NC(=O)[C@@H](N)Cc1ccc(O)cc1)C(=O)N[C@@H](CCC(=O)O)C(=O)N[C@@H](CCCNC(=N)N)C(=O)N[C@@H](CCCNC(=N)N)C(=O)N[C@@H](CCCNC(=N)N)C(=O)N[C@@H](CC(C)C)C(=O)N[C@@H](CC(N)=O)C(=O)N[C@@H](CCC(N)=O)C(=O)N[C@@H](CC(C)C)C(=O)N[C@@H](CC(C)C)C(=O)N[C@@H](CC(C)C)C(=O)N1CCC[C@H]1C(=O)N[C@@H](CC(C)C)C(=O)O,Mapk1,"enzyme activity, inhibitor, fluorescence",,pH 7.4,45
C=C1NC(=O)[C@H]([C@@H](C)O)NC(=O)[C@H](CSCC(N)=O)NC(=O)CNC(=O)[C@H](Cc2ccc(O)cc2)NC(=O)[C@H]([C@@H](C)O)NC(=O)[C@H](CCC(N)=O)NC(=O)[C@H](CO)NC(=O)CNC(=O)[C@H](CC(C)C)NC(=O)[C@H](Cc2c[nH]c3ccccc23)NC(=O)[C@H](Cc2c[nH]c3ccccc23)NC(=O)c2ccc(-c3nc(C(=O)OC)cs3)nc2-c2csc1n2,"TRAF2 and NCK-interacting protein kinase (TNIK, Homo sapiens, UniProt Q9UKE5)","enzyme activity, inhibitor, ADP detection",,,4.6
O=S(=O)(N/N=C/c1ccc(OS(=O)(=O)c2cc(Cl)ccc2Cl)cc1)c1ccc(Cl)cc1,"Carbonic anhydrase 1 (CA1, Homo sapiens, UniProt P00915)","enzyme activity, inhibitor, absorbance",,,0.222
CCc1ccc(S(=O)(=O)Nc2cc(F)c(C3CC3)cc2Cl)cc1S(=O)(=O)F,"GTPase KRas, with RAF (KRAS, Homo sapiens, UniProt P01116)","RAF-KRAS interaction, inhibitor, NanoBRET",HEK293T,24 h,37 ± 17
Cc1cc(Nc2ccc(Cl)cc2)n2nc(C(F)(F)F)nc2n1,"Dihydroorotate dehydrogenase (quinone), mitochondrial (PFF0160c, Plasmodium falciparum, UniProt Q08210, E182D)","enzyme activity, inhibitor, absorbance",,,7.96

# A few entries again:
Structure (SMILES),target,test,test system,conditions,IC50 [µM]
O=S(=O)(N/N=C/c1ccc(OS(=O)(=O)c2cc(Cl)ccc2Cl)cc1)c1ccc(Cl)cc1,"Carbonic anhydrase 1 (CA1, Homo sapiens, UniProt P00915)","enzyme activity, inhibitor, absorbance",,,0.222
